Measurements from different studies.
Each numbered part is a random draw from the data of one study; scales do not carry over between parts. Substitutions count along the parent as printed.
UniProt P35372, sequence (whole entry, looked up): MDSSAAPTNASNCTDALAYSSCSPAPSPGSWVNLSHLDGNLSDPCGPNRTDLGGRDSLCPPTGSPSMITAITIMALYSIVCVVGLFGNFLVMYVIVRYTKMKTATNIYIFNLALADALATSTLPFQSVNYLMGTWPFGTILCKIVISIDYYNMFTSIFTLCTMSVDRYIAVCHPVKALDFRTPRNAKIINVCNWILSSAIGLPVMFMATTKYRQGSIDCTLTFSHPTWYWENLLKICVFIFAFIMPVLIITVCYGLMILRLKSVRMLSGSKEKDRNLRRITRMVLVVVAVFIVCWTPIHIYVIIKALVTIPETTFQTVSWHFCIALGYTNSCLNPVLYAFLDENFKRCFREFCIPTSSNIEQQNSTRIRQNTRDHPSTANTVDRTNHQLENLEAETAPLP

Study 1
Target: Prothrombin, mature alpha-thrombin (F2, Homo sapiens, UniProt P00734)
Technique: aptamer microarray, sandwich
Molecule type: DNA with 2'F-ANA
Medium: in vitro
Concentration: 200 nM
Setting: whole 15-mer aptamer, many near background
With: Cy3 exosite-II aptamer, 400 nM
Direction: higher = stronger binding
Oligonucleotide: GGTTGGTGTGGTTGG
Modification	mean fluorescence intensity [a.u.]
2'F-ANA at 3 4 5 7 9 11 12 13 15	104
2'F-ANA at 7 9 11 12 14	286
2'F-ANA at 1 3 6 8 10 11 12	91.9
2'F-ANA at 1 2 3 4 5 6 9 10 12 14	47.8
2'F-ANA at 3 8 9 11 14	641
2'F-ANA at 1 6 7 8 9 12	413
2'F-ANA at 4 5 8 9 14	69.2
2'F-ANA at 1 5 7 13	45.7

Study 2
Target: CCNA1, cyclin fold, Cln2 fusion (human)
Technique: yeast growth competition, sequencing
Medium: yeast
Setting: weak parent motif
Reference: not given
Direction: higher = stronger binding
Starting sequence: viral docking peptide; KGVKRKLFAEDSS; partner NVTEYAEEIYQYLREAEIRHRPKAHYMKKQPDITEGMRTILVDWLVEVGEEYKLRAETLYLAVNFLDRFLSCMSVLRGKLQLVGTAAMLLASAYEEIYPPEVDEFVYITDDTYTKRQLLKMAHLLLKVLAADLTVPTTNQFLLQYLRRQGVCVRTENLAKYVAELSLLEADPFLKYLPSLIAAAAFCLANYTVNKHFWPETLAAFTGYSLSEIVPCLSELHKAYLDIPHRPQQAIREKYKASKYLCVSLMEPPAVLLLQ
Substitution	normalised enrichment score
K4E	0.0858
R5F	0.165
D11Q	0.555
A9M	1.06
E10V	0.727
G2R	1.26
G2P	1.55
R5H	0.165
V3L	0.389
S12M	1.16
R5E	0.0765
K6A	0.588
K6M	0.879
L7I	0.533
A9L	0.695
E10M	0.829
E10L	1
D11N	0.591
K6C	1.15
A9S	0.814
F8L	0.0846
F8M	0.126
G2K	1.49
K6V	0.775
A9W	0.726

Study 3
Target: Sal-like protein 4, full length isoform A (SALL4, Homo sapiens, UniProt Q9UJQ4, residues 1-1053)
UniProt Q9UJQ4, sequence (whole entry, looked up): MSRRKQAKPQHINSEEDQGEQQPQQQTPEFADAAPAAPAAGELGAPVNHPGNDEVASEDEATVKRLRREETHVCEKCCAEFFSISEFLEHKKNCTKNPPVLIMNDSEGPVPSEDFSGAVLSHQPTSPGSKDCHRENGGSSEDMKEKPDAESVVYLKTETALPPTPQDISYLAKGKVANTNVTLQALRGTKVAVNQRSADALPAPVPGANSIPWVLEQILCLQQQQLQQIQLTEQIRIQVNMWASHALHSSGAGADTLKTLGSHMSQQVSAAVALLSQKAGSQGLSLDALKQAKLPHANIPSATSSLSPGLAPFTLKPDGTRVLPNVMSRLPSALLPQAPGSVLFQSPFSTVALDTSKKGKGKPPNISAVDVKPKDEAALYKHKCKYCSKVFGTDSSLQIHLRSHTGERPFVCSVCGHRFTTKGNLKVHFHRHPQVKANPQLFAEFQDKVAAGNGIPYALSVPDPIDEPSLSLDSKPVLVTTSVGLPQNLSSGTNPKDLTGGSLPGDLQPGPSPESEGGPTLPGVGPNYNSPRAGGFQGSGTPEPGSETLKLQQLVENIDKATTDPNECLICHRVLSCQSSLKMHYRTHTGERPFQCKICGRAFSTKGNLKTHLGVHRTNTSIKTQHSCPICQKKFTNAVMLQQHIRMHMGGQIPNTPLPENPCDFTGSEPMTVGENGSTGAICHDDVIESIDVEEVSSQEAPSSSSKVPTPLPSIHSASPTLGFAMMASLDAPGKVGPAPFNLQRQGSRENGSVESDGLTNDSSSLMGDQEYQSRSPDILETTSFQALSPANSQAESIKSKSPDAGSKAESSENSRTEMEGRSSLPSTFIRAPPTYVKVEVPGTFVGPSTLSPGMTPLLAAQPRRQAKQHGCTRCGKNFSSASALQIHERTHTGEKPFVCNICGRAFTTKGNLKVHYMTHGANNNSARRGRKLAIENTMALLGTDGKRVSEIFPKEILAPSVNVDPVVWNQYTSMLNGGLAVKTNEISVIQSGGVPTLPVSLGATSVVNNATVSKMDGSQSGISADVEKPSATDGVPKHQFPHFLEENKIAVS
Technique: universal PBM
Molecule type: double-stranded DNA, one strand shown
Medium: in vitro
Concentration: 600 nM
Setting: 8-mer, flanks averaged, mean of replicates
Direction: higher = stronger binding
Oligonucleotide	E-score
CGCAGGCG	-0.317
CGGCGGAG	-0.372
CTCCCGCA	-0.18
AGGAAAAC	0.0113
GTTCTAAA	0.142
GTTTCGCA	-0.0233
GTACTCGA	-0.0583
ACTATGGC	-0.0144

Study 4
Target: Histone acetyltransferase KAT6A, winged helix 1, GST fusion (KAT6A, Homo sapiens, UniProt Q92794, residues 1-85)
Technique: protein binding microarray
Molecule type: double-stranded DNA, one strand shown
Medium: in vitro
Concentration: not given
Setting: 8-mer, flanks averaged, mean of 2 arrays, mostly near background
Reference: not given
Direction: higher = stronger binding
Residues (chain): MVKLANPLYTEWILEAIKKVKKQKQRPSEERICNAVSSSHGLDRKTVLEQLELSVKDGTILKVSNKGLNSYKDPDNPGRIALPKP
Oligonucleotide	E-score
GGTCAAAA	-0.191
CTAAAGCA	-0.0913
GCGCCATA	0.139
GGCCCAGA	-0.0524
ACAGCTGG	-0.0884
GACACGTC	-0.0221
CGGGCGAG	0.241
AGGACGGA	0.0877

Mixed results
SMILES	target	assay	conditions	endpoint	value
O=C(O)[C@H]1[C@H](Cn2nnc3ccccc3c2=O)CC[C@@H]1C(=O)c1ccc(OCCC2CCOCC2)cc1	Mu-type opioid receptor (OPRM1, Homo sapiens, UniProt P35372)	ligand displacement	10 µM	inhibition	-9.72%

Excerpt of the above (study 1):
Modification	mean fluorescence intensity [a.u.]
2'F-ANA at 3 4 5 7 9 11 12 13 15	104
2'F-ANA at 7 9 11 12 14	286
2'F-ANA at 1 3 6 8 10 11 12	91.9
2'F-ANA at 1 2 3 4 5 6 9 10 12 14	47.8
2'F-ANA at 3 8 9 11 14	641
2'F-ANA at 1 6 7 8 9 12	413
2'F-ANA at 4 5 8 9 14	69.2
2'F-ANA at 1 5 7 13	45.7
